Experimental data gathered from unrelated publications.
Compare with care: the assays were run in different laboratories. “And” joins repeats or separate records; there may be more than shown. ± gives the spread as reported.
GBA2: Beta-glucosidase (GBA2, Homo sapiens, UniProt Q9HCG7)
Chain of UniProt Q9HCG7 (whole entry, looked up): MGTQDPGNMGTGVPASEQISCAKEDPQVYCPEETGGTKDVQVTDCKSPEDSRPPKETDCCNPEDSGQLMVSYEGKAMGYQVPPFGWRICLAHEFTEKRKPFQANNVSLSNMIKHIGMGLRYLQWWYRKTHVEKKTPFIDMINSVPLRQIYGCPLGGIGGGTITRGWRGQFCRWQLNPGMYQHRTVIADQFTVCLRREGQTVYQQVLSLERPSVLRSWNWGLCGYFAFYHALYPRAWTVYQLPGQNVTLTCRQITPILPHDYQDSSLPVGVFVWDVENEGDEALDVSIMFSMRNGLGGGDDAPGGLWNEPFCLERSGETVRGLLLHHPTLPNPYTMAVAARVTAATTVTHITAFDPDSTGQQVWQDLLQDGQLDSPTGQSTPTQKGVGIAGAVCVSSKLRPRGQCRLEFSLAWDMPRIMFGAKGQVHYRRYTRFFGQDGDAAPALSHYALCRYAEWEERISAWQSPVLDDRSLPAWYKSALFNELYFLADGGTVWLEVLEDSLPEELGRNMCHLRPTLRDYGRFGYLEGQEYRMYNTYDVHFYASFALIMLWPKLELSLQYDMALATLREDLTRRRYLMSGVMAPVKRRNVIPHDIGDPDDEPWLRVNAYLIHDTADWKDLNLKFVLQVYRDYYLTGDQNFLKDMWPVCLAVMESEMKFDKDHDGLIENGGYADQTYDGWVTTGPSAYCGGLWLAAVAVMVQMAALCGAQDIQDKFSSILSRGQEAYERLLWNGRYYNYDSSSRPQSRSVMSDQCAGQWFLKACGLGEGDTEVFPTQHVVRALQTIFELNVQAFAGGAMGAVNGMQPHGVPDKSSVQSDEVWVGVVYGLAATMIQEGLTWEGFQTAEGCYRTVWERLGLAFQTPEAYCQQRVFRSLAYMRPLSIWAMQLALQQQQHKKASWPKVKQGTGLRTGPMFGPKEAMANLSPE
CASP3: Caspase-3 (CASP3, Homo sapiens, UniProt P42574)
B4GALT1: Beta-1,4-galactosyltransferase 1 (B4GALT1, Homo sapiens, UniProt P15291)
Chain of UniProt Q93008 (whole entry, looked up): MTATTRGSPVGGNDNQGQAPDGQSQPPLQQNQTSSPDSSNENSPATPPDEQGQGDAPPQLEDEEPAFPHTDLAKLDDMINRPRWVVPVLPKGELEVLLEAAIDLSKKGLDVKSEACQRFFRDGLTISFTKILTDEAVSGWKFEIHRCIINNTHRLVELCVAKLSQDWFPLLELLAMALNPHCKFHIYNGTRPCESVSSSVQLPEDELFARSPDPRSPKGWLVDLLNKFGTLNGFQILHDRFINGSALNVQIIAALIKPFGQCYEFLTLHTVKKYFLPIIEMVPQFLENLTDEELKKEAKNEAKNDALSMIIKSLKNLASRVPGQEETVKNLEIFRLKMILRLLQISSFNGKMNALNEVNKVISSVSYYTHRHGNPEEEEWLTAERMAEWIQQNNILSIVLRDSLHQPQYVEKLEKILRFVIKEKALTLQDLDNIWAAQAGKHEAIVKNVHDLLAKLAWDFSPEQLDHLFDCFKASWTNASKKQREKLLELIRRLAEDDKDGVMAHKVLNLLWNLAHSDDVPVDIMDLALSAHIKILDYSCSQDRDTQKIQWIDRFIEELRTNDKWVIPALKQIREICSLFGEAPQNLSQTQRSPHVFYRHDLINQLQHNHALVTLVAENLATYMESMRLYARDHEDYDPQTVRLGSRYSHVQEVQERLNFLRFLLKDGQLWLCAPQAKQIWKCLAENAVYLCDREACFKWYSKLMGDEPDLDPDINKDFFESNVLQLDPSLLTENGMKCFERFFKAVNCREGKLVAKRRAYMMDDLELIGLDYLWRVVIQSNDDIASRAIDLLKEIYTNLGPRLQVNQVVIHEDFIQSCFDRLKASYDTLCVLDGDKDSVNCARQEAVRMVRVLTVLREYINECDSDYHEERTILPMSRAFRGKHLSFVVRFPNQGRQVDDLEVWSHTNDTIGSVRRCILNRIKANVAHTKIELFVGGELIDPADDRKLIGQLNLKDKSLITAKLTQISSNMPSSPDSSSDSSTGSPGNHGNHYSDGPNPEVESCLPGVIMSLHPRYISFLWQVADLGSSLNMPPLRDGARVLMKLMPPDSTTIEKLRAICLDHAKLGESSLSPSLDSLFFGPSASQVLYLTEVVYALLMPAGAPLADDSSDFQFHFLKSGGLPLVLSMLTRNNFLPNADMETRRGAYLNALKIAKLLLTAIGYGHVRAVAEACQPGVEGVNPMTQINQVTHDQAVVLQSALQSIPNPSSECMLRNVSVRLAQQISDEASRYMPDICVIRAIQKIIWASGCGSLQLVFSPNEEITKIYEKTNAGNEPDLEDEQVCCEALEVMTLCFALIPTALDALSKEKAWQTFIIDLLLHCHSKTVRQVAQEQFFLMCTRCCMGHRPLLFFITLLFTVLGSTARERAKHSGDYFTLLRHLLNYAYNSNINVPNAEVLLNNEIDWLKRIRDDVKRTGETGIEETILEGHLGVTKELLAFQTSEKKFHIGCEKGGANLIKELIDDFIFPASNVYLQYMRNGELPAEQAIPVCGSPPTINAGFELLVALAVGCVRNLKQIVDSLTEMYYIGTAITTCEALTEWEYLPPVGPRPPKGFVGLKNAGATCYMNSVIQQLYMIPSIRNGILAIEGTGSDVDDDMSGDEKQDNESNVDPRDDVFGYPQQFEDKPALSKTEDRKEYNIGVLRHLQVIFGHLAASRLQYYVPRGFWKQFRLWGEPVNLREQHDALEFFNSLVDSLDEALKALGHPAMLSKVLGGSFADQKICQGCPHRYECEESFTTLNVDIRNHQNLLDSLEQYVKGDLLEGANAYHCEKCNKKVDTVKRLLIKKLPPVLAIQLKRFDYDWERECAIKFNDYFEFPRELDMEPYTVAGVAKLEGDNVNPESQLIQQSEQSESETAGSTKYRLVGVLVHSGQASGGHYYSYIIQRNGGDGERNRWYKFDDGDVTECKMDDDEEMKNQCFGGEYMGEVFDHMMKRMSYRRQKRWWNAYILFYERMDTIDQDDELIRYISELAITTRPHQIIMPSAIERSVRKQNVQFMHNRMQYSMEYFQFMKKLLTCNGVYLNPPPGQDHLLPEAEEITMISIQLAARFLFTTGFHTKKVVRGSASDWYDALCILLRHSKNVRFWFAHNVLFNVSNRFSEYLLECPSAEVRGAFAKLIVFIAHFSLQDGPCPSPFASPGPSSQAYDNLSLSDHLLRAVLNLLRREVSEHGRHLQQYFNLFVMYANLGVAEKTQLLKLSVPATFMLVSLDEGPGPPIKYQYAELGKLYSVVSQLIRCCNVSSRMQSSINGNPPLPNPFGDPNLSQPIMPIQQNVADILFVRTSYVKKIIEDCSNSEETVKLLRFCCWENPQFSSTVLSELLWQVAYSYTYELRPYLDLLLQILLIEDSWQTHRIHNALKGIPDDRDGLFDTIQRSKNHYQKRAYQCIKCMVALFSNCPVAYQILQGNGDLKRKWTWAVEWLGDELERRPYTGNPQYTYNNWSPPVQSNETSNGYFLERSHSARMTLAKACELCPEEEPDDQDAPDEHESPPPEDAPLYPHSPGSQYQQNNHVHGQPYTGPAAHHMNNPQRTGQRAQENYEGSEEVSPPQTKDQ
Chain of UniProt Q92633 (whole entry, looked up): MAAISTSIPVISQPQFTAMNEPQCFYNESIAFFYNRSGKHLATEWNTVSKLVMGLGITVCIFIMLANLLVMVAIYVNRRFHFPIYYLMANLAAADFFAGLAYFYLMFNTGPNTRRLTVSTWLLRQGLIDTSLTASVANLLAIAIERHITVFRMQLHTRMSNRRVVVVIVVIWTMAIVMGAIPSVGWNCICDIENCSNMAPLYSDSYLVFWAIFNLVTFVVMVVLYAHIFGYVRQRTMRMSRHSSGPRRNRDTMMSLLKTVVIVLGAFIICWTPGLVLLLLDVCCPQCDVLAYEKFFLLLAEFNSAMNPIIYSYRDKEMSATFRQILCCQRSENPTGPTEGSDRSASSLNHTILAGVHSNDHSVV
Chain of UniProt P15291 (whole entry, looked up): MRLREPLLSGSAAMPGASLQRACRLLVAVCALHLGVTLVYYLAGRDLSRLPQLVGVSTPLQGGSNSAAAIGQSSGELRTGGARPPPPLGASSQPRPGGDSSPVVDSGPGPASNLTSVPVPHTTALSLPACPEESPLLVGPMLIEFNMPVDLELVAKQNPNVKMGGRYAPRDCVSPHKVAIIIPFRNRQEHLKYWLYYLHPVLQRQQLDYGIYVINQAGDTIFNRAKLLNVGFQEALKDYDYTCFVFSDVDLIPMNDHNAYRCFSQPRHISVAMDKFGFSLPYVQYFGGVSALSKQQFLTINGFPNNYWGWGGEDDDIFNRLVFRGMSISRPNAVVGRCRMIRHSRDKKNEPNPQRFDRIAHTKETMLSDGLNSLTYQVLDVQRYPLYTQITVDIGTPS
Chain of UniProt Q9NTM9 (whole entry, looked up): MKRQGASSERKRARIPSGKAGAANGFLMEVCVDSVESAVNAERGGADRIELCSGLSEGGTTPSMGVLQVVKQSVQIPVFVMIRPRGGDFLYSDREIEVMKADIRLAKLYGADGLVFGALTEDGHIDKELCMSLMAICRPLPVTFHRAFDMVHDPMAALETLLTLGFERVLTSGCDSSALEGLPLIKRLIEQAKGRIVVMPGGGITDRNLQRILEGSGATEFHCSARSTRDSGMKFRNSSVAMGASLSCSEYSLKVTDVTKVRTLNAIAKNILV
Chain of UniProt Q5VWZ2 (whole entry, looked up): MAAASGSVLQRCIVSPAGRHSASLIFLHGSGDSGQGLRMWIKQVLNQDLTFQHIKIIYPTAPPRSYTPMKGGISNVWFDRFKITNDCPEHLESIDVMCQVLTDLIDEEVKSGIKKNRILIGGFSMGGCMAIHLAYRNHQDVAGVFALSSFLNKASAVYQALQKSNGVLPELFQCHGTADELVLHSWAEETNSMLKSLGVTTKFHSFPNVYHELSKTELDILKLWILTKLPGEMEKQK

With `O=c1cc(Cn2ccnc2)c2cc(O)ccc2o1` the agonist activity was 0.16 ± 0.31% (Alpha-1B adrenergic receptor (ADRA1B, Homo sapiens, UniProt P35368); intracellular Ca2+ mobilization, agonist; COS-7; 500 µM; baseline: 3 µM ionomycin).
`N=C(Nc1ccccc1)c1ccc(-c2ccc(-c3ccc(C(=N)Nc4ccccc4)cc3)o2)cc1` gave a remaining activity of 65.6% (Protein arginine N-methyltransferase 5 (PRMT5, Homo sapiens, UniProt O14744); enzyme activity, inhibitor, radiometric; 20 µM).
With `CNS(=O)(=O)Nc1nccc(Cc2c(C)c3ccc(Oc4ncccc4F)cc3oc2=O)c1F` the IC50 was over 1000 nM (HCC827; cell viability; 7 days).
The fold change of `CCN(CC)C(CO)c1cccc2c(C)c(C)oc12` (stereo not shown) is reported as 0.943 and 1.02 and 0.982 and 0.979 and 0.992 (Lysophosphatidic acid receptor 1 (LPAR1, Homo sapiens, UniProt Q92633); G-protein dissociation, agonist, NanoBiT; HEK-293T; 100 pM, wild-type receptor; baseline: baseline luminescence).
The remaining activity of `CC(C)[C@@H]1NC(=O)[C@H](Cc2ccccc2)NC(=O)CSC[C@@H](C(N)=O)NC(=O)[C@H](CCC(=O)O)NC(=O)[C@H](CO)NC(=O)[C@H](Cc2c[nH]c3cccc(Cl)c23)NC(=O)[C@H](C2CCCCC2)NC(=O)[C@H](C(C)C)NC(=O)[C@H](Cc2ccc(O)cc2)NC(=O)[C@H](CC(=O)O)NC(=O)[C@H](Cc2c[nH]c3ccccc23)NC(=O)[C@H](Cc2ccc(N)nc2)NC(=O)[C@H](Cc2c[nH]c3ccc(Cl)cc23)NC(=O)[C@H](CCC(=O)O)NC1=O` is reported as 69.9% (Interleukin-1 receptor-like 2 (IL1RL2, Homo sapiens, UniProt Q9HB29); reporter gene (SEAP), inhibitor, HEK-Blue IL-36R reporter; HEK-Blue IL-36R cells; 33.33 µM, 6 h, together with: IL-36γ 30 ng/mL).
`CCCCCC(O)/C=C/C=O` (stereo not shown): “isoTOP-ABPP competition ratio” 2.6 (Cytoplasmic dynein 1 light intermediate chain 1 (DYNC1LI1, Homo sapiens, UniProt Q9Y6G9); competitive isoTOP-ABPP; proteome, soluble, MDA-MB-231; 100 µM, 60 min, together with: iodoacetamide probe; baseline: DMSO over compound-treated, higher = stronger cysteine blockade).
With `OC[C@@H]1[C@@H](O)[C@H](O)[C@@H](O)CN1CCCCCOCC1CCCCC1` the selectivity ratio was 125 (GBA2; inhibitor, 4MU-β-D-glucopyranoside; HEK293T homogenates overexpressing GBA2; baseline: GCS IC50 over GBA2 IC50).
With `CCc1ccc2nc(-c3cnnn3C)[nH]c2c1` the residual binding was 3% (Bromodomain adjacent to zinc finger domain protein 2A (BAZ2A, Homo sapiens, UniProt Q9UIF9); acetylated peptide binding, inhibitor, AlphaScreen competition; 500 µM).
Under “log2 fold change”, `CN1CCCNC(=O)c2cccc(c2)C(=O)NCCCN(C)CCCNc2cccc3c2C(=O)c2cccc(c2C3=O)NCCC1` is recorded as -1.82 (SAS; RNA-Seq, item: AKAP8 mRNA; 1 µM, 6 h; baseline: untreated cells).
`CC(=O)N[C@@H](CCC(N)=O)C(=O)N[C@@H](CC(C)C)C(=O)N1CCC[C@H]1C(=O)N[C@@H](CC(=O)O)C(=O)COC(=O)c1c(C)cccc1C` has a kinact/KI of 58900 M⁻¹ s⁻¹ (CASP3; enzyme activity, inhibitor).
With `C[C@@H](OCCCCCN1C[C@H](O)[C@@H](O)[C@H](O)[C@H]1CO)c1ccc(-c2ccccc2)cc1` the selectivity ratio was 100000 (GBA2; inhibitor, 4MU-β-D-glucopyranoside; HEK293T homogenates overexpressing GBA2; baseline: GBA1 IC50 over GBA2 IC50).
`O=C(NCC1CC1)c1cccc(NC(=O)C(C(F)(F)F)C(F)(F)F)c1`: IC50 “inactive” (Chymotrypsinogen A (Bos taurus, UniProt P00766); enzyme activity, inhibitor).
`Nc1nc(SCc2ccc(Cl)cc2)nn1S(=O)(=O)c1ccc2ncsc2c1`: “probe labeling increase” 2.8 fold (Lysophospholipase-like protein 1 (LYPLAL1, Homo sapiens, UniProt Q5VWZ2); enzyme activity, activator, gel-based ABPP; purified protein; concentration not given, together with: FP-rhodamine; baseline: DMSO).
The selectivity ratio of `OC[C@@H]1[C@@H](O)[C@H](O)[C@@H](O)CN1CCCCCOCc1ccc(-c2ccccc2)c(F)c1` is reported as 313 (GBA2; inhibitor, 4MU-β-D-glucopyranoside; HEK293T homogenates overexpressing GBA2; baseline: GCS IC50 over GBA2 IC50).
The EC50 of `CC[C@@H]([C@H](CC)c1ccc(O)cc1)[C@@H](C)c1ccc(O)cc1` is reported as 0.937 nM (Estrogen receptor (ESR1, Homo sapiens, UniProt P03372); reporter gene, luciferase reporter (3xERE); 293T; 24 h).
`COC1CN([C@H]2CC[C@H]([C@@]3(C)Oc4c(Cl)cc(C(=O)NCc5c(SC)cc(C)[nH]c5=O)c(C)c4O3)CC2)C1`: “log2 fold change” 2.7 (RNA-seq, item: SERINC2; human, whole blood; dose not given, 24 h; baseline: pretreatment baseline).
`C=CC(=O)N1C[C@H](C)N(c2nc(OC[C@@]34CCCN3C[C@H](F)C4)nc3c(F)c(-c4ccc(F)c5sc(N)c(C#N)c45)c(C(F)(F)F)cc23)C[C@H]1C` — result for “dissociation rate constant koff”: 0.000968 ± 0.00029 s⁻¹ (GTPase KRas, GDP-bound (KRAS, Homo sapiens, UniProt P01116, A146T); SPR).
The selectivity ratio of `OC[C@@H]1[C@@H](O)[C@H](O)[C@@H](O)CN1CCCCCOCCC12CC3CC(CC(C3)C1)C2` is reported as 38 (GBA2; inhibitor, 4MU-β-D-glucopyranoside; HEK293T homogenates overexpressing GBA2; baseline: GBA1 IC50 over GBA2 IC50).
For `O=C(O)/C=C\C(=O)c1ccc(O)cc1`, the luminescence was 15400 a.u. (B4GALT1; enzyme activity, inhibitor, UDP-Glo; 100 µM; lower means stronger inhibition).
`CC(=O)N1CCC[C@H]1C(=O)N[C@H](C(=O)NCC(=O)N[C@@H](CC(=O)O)C(=O)COC(=O)c1c(C)cccc1C)C(C)(C)C` has a kinact/KI of 16700 M⁻¹ s⁻¹ (CASP3; enzyme activity, inhibitor).
`Cc1ncsc1-c1ccc(C(C)NC(=O)C2CC(O)CN2C(=O)C(NC(=O)CCCCCCCCCCN2CCCC(Nc3ncc(Cl)c(Nc4ccccc4S(=O)(=O)C(C)C)n3)C2)C(C)(C)C)cc1` (stereo not shown): “log2 fold change” -1.04 (22Rv1; RNA-seq, item: PRKD2 mRNA; concentration not given; baseline: DMSO).
`N#Cc1ccccc1-c1ccc(COCCCCCN2C[C@H](O)[C@@H](O)[C@H](O)[C@H]2CO)cc1` gave a selectivity ratio of 120 (GBA2; inhibitor, 4MU-β-D-glucopyranoside; HEK293T homogenates overexpressing GBA2; baseline: GBA1 IC50 over GBA2 IC50).
With `C[N+]1(C)CCCC1` the kon was 1.62e+07 M⁻¹ s⁻¹ (Chrnd/Chrna1/Chrne (Mus musculus, UniProt P02716+P04756+P20782, G173S/S470W); binding, single-channel kinetics; cell-attached patch; AChR wild type, S chain side).
`COc1cccc(C)c1C(=O)N[C@@H](Cc1ccc(O)cc1)C(=O)O` gave a luminescence of 94700 a.u. (B4GALT1; enzyme activity, inhibitor, UDP-Glo; 100 µM; lower means stronger inhibition).
For `N#CN1CC[C@H](C(=O)Nc2nc3c(s2)CN(C(=O)Cn2cc(CNC(=O)CCCC[C@@H]4SC[C@@H]5NC(=O)N[C@@H]54)nn2)CC3)C1`, the iBAQ abundance was 2.54e+06 and 2.15e+06 and 1.42e+06 (Ubiquitin carboxyl-terminal hydrolase 9X (USP9X, Homo sapiens, UniProt Q93008); probe binding, affinity probe, neutravidin pull-down LC-MS/MS; HEK293T, cell lysate; 5 µM, 1 h, single replicate, unit not given; higher = more pulled down).
`O=C1c2sc(-c3ccc(N4CCC(F)C4)nc3F)nc2CCN1c1cccnc1` (stereo not shown) gave an inhibition of 7% (Melanin-concentrating hormone receptor 1 (MCHR1, Homo sapiens, UniProt Q99705); ligand displacement, radioligand; 1 µM).
For `C=CC(=O)N1CCCC(n2c(=O)c3ncccc3n(Cc3ccc(Oc4ccccc4)cc3)c2=O)C1` (stereo not shown), the melting temperature was 56.6 °C and 56.8 °C (Copper homeostasis protein cutC homolog (CUTC, Homo sapiens, UniProt Q9NTM9); thermal proteome profiling, item: CUTC; treated).
With `Nc1ncc(-c2cc(-c3cnn(CC(F)(F)F)c3)ncc2F)nc1C(=O)NC1CNCC(F)C1` (stereo not shown) the remaining binding was 99% (ERK5; KINOMEscan; 1 µM; baseline: DMSO control).
With `OC[C@H]1[C@@H](O)[C@H](O)[C@@H](O)CN1CCCCCOCc1ccccc1` the selectivity ratio was 67 (GBA2; inhibitor, 4MU-β-D-glucopyranoside; HEK293T homogenates overexpressing GBA2; baseline: GCS IC50 over GBA2 IC50).
`CCCCCCCCCCCCCCCC(=O)N[C@@H](CCCNC(=N)N)C(=O)NCCCC[C@H](NC(=O)[C@H](CCC(N)=O)NC(=O)[C@H](Cc1c[nH]cn1)NC(=O)[C@H](CCCC)NC(=O)[C@H](CC(C)C)NC(=O)[C@H](CCC(N)=O)NC(=O)[C@@H](NC(=O)[C@H](CCC(=O)O)NC(=O)C(C)(C)NC(=O)[C@@H](NC(=O)C1(N)CCCC1)C(C)C)[C@@H](C)CC)C(N)=O`: “Emax (normalized AUC)” 101 ± 2% (Parathyroid hormone/parathyroid hormone-related peptide receptor (PTH1R, Homo sapiens, UniProt Q03431); cAMP response, agonist, GloSensor cAMP; GP-2.3; washout phase).
`CCCC[C@H](NC(=O)COCCOCCNC(=O)CN1CCN(CC(=O)O)CCN(CC(=O)O)CC1)C(=O)N[C@H]1CC(=O)NCCCC[C@@H](C(N)=O)NC(=O)[C@H](Cc2c[nH]c3ccccc23)NC(=O)[C@H](CCCNC(=N)N)NC(=O)[C@@H](Cc2ccccc2)NC(=O)[C@H](Cc2c[nH]cn2)NC1=O` [technetium-99m labelled] gave a tissue uptake of 0.05 ± 0.04 %ID/g (C57 mouse, muscle; intravenous, 0.037 MBq, 2 h).
`C=CC(=O)Nc1cccc(Cn2ncc3cnc(Nc4cnn(CCOC)c4)nc32)c1`: “percent of control” 31% (ITK human; binding, KINOMEscan; 100 nM; lower = stronger binding).
For `Nc1nnc(-c2ccccc2O)cc1N1CC2CCC(C1)N2c1ccnc(C#CCCN2CCCCCC2)c1`, binding read “no binding” (F-box only protein 22, with SKP1 (Homo sapiens, UniProt Q8NEZ5); surface plasmon resonance; up to 100 µM, FBXO22/SKP1 complex).
For `CCCCCCCN1C[C@H](O)[C@@H](O)[C@H](O)[C@H]1CO`, the selectivity ratio was 444 (GBA2; inhibitor, 4MU-β-D-glucopyranoside; HEK293T homogenates overexpressing GBA2; baseline: GCS IC50 over GBA2 IC50).
`CC(=O)N[C@H](C(=O)N[C@@H](CCCNC(N)=O)C(=O)N[C@@H](CCO)C(=O)N[C@@H](CC(=O)O)C(=O)COC(=O)c1c(C)cccc1C)C1CCCCC1` gave a kinact/KI of 7600 M⁻¹ s⁻¹ (CASP3; enzyme activity, inhibitor).
With `CC(C)=CCC/C(C)=C/CC/C(C)=C/CN1C[C@@H](O)[C@H](O)[C@H](O)[C@@H]1CO` the selectivity ratio was 37000 (GBA2; inhibitor, 4MU-β-D-glucopyranoside; HEK293T homogenates overexpressing GBA2; baseline: GBA1 IC50 over GBA2 IC50).
For `Cc1nn(-c2cccc(N)c2)c(=O)c2cnc(Nc3ccc(N4CCNCC4)cc3)nc12`, the IC50 was over 10000 nM (Muscle, skeletal receptor tyrosine-protein kinase (MUSK, Homo sapiens, UniProt O15146); enzyme activity, inhibitor).

Repeated from above:
`CCCCCC(O)/C=C/C=O` (stereo not shown): “isoTOP-ABPP competition ratio” 2.6 (Cytoplasmic dynein 1 light intermediate chain 1 (DYNC1LI1, Homo sapiens, UniProt Q9Y6G9); competitive isoTOP-ABPP; proteome, soluble, MDA-MB-231; 100 µM, 60 min, together with: iodoacetamide probe; baseline: DMSO over compound-treated, higher = stronger cysteine blockade).
With `OC[C@H]1[C@@H](O)[C@H](O)[C@@H](O)CN1CCCCCOCc1ccccc1` the selectivity ratio was 67 (GBA2; inhibitor, 4MU-β-D-glucopyranoside; HEK293T homogenates overexpressing GBA2; baseline: GCS IC50 over GBA2 IC50).
With `C[N+]1(C)CCCC1` the kon was 1.62e+07 M⁻¹ s⁻¹ (Chrnd/Chrna1/Chrne (Mus musculus, UniProt P02716+P04756+P20782, G173S/S470W); binding, single-channel kinetics; cell-attached patch; AChR wild type, S chain side).
For `N#CN1CC[C@H](C(=O)Nc2nc3c(s2)CN(C(=O)Cn2cc(CNC(=O)CCCC[C@@H]4SC[C@@H]5NC(=O)N[C@@H]54)nn2)CC3)C1`, the iBAQ abundance was 2.54e+06 and 2.15e+06 and 1.42e+06 (Ubiquitin carboxyl-terminal hydrolase 9X (USP9X, Homo sapiens, UniProt Q93008); probe binding, affinity probe, neutravidin pull-down LC-MS/MS; HEK293T, cell lysate; 5 µM, 1 h, single replicate, unit not given; higher = more pulled down).
For `CCCCCCCN1C[C@H](O)[C@@H](O)[C@H](O)[C@H]1CO`, the selectivity ratio was 444 (GBA2; inhibitor, 4MU-β-D-glucopyranoside; HEK293T homogenates overexpressing GBA2; baseline: GCS IC50 over GBA2 IC50).
`CCCC[C@H](NC(=O)COCCOCCNC(=O)CN1CCN(CC(=O)O)CCN(CC(=O)O)CC1)C(=O)N[C@H]1CC(=O)NCCCC[C@@H](C(N)=O)NC(=O)[C@H](Cc2c[nH]c3ccccc23)NC(=O)[C@H](CCCNC(=N)N)NC(=O)[C@@H](Cc2ccccc2)NC(=O)[C@H](Cc2c[nH]cn2)NC1=O` [technetium-99m labelled] gave a tissue uptake of 0.05 ± 0.04 %ID/g (C57 mouse, muscle; intravenous, 0.037 MBq, 2 h).
